Assay results collected from several papers.
Each line is one published result; not all experiments were run side by side. Several values in a cell are separate wells, animals, samples, runs or records. ± marks the error that the study gave.

SMILES	tested on	test	system	conditions	how to read	quantity	result
COc1ccccc1-c1ccncc1C(=O)Nc1nnc(OCc2ccc(Cl)cc2)s1	RPE-1 BRCA1 WT parental	–	–	4 µM, run 1	baseline: untreated	colony survival	72.2%
CC[C@H](C)[C@H](NC(=O)[C@H](CO)NC(=O)[C@H](Cc1ccc(O)cc1)NC(=O)[C@H](Cc1ccc(O)cc1)NC(=O)[C@H](CC(N)=O)NC(=O)CNC(=O)[C@H](CO)NC(=O)[C@H](Cc1ccc(O)cc1)NC(=O)[C@H](CO)NC(=O)[C@H](CO)NC(=O)[C@H](CC(N)=O)NC(=O)COCCOCCNC(=O)CN1CCN(CC(=O)O)CCN(CC(=O)O)CCN(CC(=O)O)CC1)C(=O)N[C@@H](CC(C)C)C(N)=O [copper-64 labelled]	–	dynamic PET	tamoxifen-induced PDAC mouse model, tumor	0 min, 49 days after tamoxifen	–	mean uptake	0 %IA/cc
CSCC[C@H](NC(=O)[C@@H](NC(=O)[C@H](CCC(N)=O)NC(=O)[C@H](CO)NC(=O)[C@@H](N)C(C)C)[C@@H](C)O)C(=O)N[C@@H](CCCNC(=N)N)C(=O)N[C@@H](CCC(N)=O)C(=O)N[C@H](C(=O)N[C@@H](C)C(=O)N[C@H](C(=O)N1CCC[C@H]1C(=O)N[C@@H](CC(C)C)C(=O)N[C@@H](CC(C)C)C(=O)N[C@@H](Cc1c[nH]c2ccccc12)C(=O)N[C@@H](Cc1ccccc1)C(=O)N[C@@H](Cc1c[nH]c2ccccc12)C(=O)N[C@H](C(=O)NCC(=O)N[C@@H](CO)C(=O)N[C@@H](CC(C)C)C(=O)NCCOCCOCCOCCOCCOCCOCCOCCOCCOCCOCCOCCOCCC(=O)N[C@@H](CS)C(N)=O)[C@@H](C)O)C(C)C)[C@@H](C)O	MDA-MB-231 breast cancer	cell binding, phage binding, measured: output/input phage	–	10 min, 37 °C	baseline: control phage	selectivity ratio	28 ± 13.3
COc1ccc(NC(=O)c2ccc3[nH]c(-c4ccc(N(C)C)cc4)nc3c2)cn1	HCT116	IncuCyte	–	concentration not given, 24 (unit not given)	–	PI-positive cells	108 count and 167 count and 124 count
COc1ccccc1-c1n[nH]c2nc(N[C@H]3CC[C@H](NS(=O)(=O)CC(C)C)CC3)ncc12	–	bead binding, competition bead pull-down, measured: LINJ.08.1220	Leishmania donovani extract	10 µM	baseline: vehicle	relative abundance	1.38
Cc1cc(=O)oc2cc(OCCCCCC[Se]C#N)ccc12	WiDr, multidrug-resistant	sulforhodamine B	–	–	–	GI50	3.1 ± 0.9 µM
C[C@@H]1O[C@H]2O[C@@H]3C4(O)C(=O)c5cccc(O)c5C(=O)C4(O)O[C@]3(C)[C@]21O (stereo partly drawn)	MDA-MB-231 and Vero	MTT	–	–	baseline: CC50 Vero over EC50 MDA-MB-231	selectivity index	1.15
COc1ccccc1-c1n[nH]c2nc(NC3CCN(C(=O)Cc4ccc(F)cc4F)CC3)ncc12	–	bead binding, competition bead pull-down, measured: LMJF.36.5010	Leishmania donovani axenic amastigote extract	10 µM	baseline: vehicle	relative abundance	1.07
Cc1cc(C(=O)Nc2nc3cccc(C)c3n2[C@H]2CCCCN(C(=O)/C=C/CN(C)C)C2)ccn1	Trypanosoma brucei	propidium iodide flow cytometry	bloodstream form	concentration not given, 16 h	–	cells in S phase	17.5%
O=C(C[Se]C(=O)c1ccc2ccccc2c1)Nc1cccc(C(F)(F)F)c1	NCI60 colon subpanel	NCI60 five-dose screen	–	–	–	CC50	20 µM
O=C1NC2(CC2)COc2ncc(F)cc2[C@H]2COCCN2c2ccn3ncc1c3n2	–	–	Sprague-Dawley rat, female, plasma	oral, 20 mg/kg/day, end of recovery, 4-week repeated-dose toxicity	–	prothrombin time	8.3 ± 0.2 s
CC(C)(C)C(=O)OCOP(=O)(OCOC(=O)C(C)(C)C)C1CCCN(O)C1=O (stereo not drawn)	HOP-62	–	–	–	–	TGI	6.63 µM
O=C(C[Se]C(=O)c1ccco1)Nc1cccc(C(F)(F)F)c1	NCI60 colon subpanel	NCI60 five-dose screen	–	–	–	CC50	64.5 µM
N=C(N)NCCC[C@H](NC(=O)[C@H](CCCNC(=N)N)NC(=O)[C@H](CCCNC(=N)N)NC(=O)[C@H](CCC(N)=O)NC(=O)[C@H](CCCNC(=N)N)NC(=O)[C@H](CCCNC(=N)N)NC(=O)[C@H](CCCCN)NC(=O)[C@H](CCCCN)NC(=O)[C@H](CCCNC(=N)N)NC(=O)[C@H](Cc1c[nH]c2ccccc12)NC(=O)[C@H](Cc1c[nH]c2ccccc12)NC(=O)[C@@H](N)CSSC[C@H](N)C(=O)N[C@@H](Cc1c[nH]c2ccccc12)C(=O)N[C@@H](Cc1c[nH]c2ccccc12)C(=O)N[C@@H](CCCNC(=N)N)C(=O)N[C@@H](CCCCN)C(=O)N[C@@H](CCCCN)C(=O)N[C@@H](CCCNC(=N)N)C(=O)N[C@@H](CCCNC(=N)N)C(=O)N[C@@H](CCC(N)=O)C(=O)N[C@@H](CCCNC(=N)N)C(=O)N[C@@H](CCCNC(=N)N)C(=O)N[C@@H](CCCNC(=N)N)C(=O)NCC(N)=O)C(=O)NCC(N)=O	Neuro2a	protein delivery, fluorescence, in-gel, SDS-PAGE, measured: AF488-H1	–	2.5 µM, 1 h, with: AF488-H1 0.75 µM	–	nuclear concentration	1.8 µM
NC(=O)N/N=C/c1ccc(OCc2cccc(F)c2)cc1	IMR-32	measured: GPX3	–	300 µg/mL, 24 h	higher = more activity	glutathione peroxidase activity (OD450)	0.082 a.u.

Some of these lines once more:
SMILES	tested on	test	system	conditions	how to read	quantity	result
Cc1cc(=O)oc2cc(OCCCCCC[Se]C#N)ccc12	WiDr, multidrug-resistant	sulforhodamine B	–	–	–	GI50	3.1 ± 0.9 µM
